Results of several laboratories.
Numbered parts are unrelated; each lists some results of a single study.

Block 1
Target: Histone acetyltransferase KAT6A, winged helix 1, GST fusion (KAT6A, Homo sapiens, UniProt Q92794, residues 1-85)
Technique: protein binding microarray
Form: double-stranded DNA, one strand shown
Medium: in vitro
Concentration: not given
Notes: 8-mer, flanks averaged, mean of 2 arrays, mostly near background
Relative to: not given
Direction: higher = stronger binding
Construct (chain): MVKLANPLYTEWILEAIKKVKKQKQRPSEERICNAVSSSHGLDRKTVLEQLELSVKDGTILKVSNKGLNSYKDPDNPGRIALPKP
Sequence | E-score
CACAAGTA | -0.138
ATCCAGCC | -0.1
CTGACATC | -0.107
GAACCTAC | -0.177
ATAGTATA | -0.0539
GGGACAAA | -0.107
CACCCTAA | -0.219
CACGACCA | -0.18
CGTGCTAA | -0.107
GAAGTAGA | -0.253
CCTTGGAG | -0.174
AGGAAGCA | -0.274
CGCTCTAC | 0.177
AAGAAAGA | -0.172
ATGCATCC | -0.15
AATAGTAT | -0.164
GGGAGCAC | -0.117
AAGTCCCC | -0.0264
CGCTCGGC | 0.32
CTGTTACA | 0.069
GTTTGTGA | -0.148
ATATCAAG | -0.0583
CTGTGCCA | -0.155
ACAATATG | -0.0757
ACACGACA | -0.274

Block 2
Target: Prothrombin, mature alpha-thrombin (F2, Homo sapiens, UniProt P00734)
Technique: aptamer microarray, sandwich
Form: DNA with 2'F-ANA
Medium: in vitro
Concentration: 200 nM
Notes: whole 15-mer aptamer, many near background
With: Cy3 exosite-II aptamer, 400 nM
Direction: higher = stronger binding
Sequence: GGTTGGTGTGGTTGG
Modification | mean fluorescence intensity [a.u.]
2'F-ANA at 3 6 9 12 13 | 1060
2'F-ANA at 1 3 5 8 11 14 15 | 71.3
2'F-ANA at 3 8 9 10 12 14 15 | 432
2'F-ANA at 1 2 4 6 7 8 10 12 13 14 | 42.2
2'F-ANA at 1 2 3 4 6 9 10 11 12 13 15 | 70
2'F-ANA at 3 11 12 15 | 1180
2'F-ANA at 2 3 5 8 10 12 | 65.7
2'F-ANA at 2 6 8 9 10 11 13 14 | 83.1
2'F-ANA at 3 4 5 6 7 8 10 12 13 14 15 | 53.2
2'F-ANA at 2 3 4 5 8 9 10 11 13 | 57.2
2'F-ANA at 1 4 12 15 | 370
2'F-ANA at 3 4 5 6 7 8 9 10 11 12 13 14 | 92.1
2'F-ANA at 4 5 6 9 10 12 13 14 15 | 45.9
2'F-ANA at 2 4 7 11 12 13 | 418
2'F-ANA at 1 2 4 5 7 8 10 13 | 67.1
2'F-ANA at 1 3 7 8 9 11 13 15 | 284
2'F-ANA at 1 2 5 6 8 | 60.5
2'F-ANA at 2 5 7 8 9 | 86.4
2'F-ANA at 4 5 7 8 9 13 | 54
2'F-ANA at 4 5 6 9 10 11 12 15 | 59.1

Block 3
Target: Interferon regulatory factor 5, full length, phosphomimetic (IRF5, Homo sapiens, UniProt Q13568-2, residues 1-514, K96S/S451D/S453D/S456D/S462D)
Technique: protein-binding microarray
Form: double-stranded DNA, one strand shown
Medium: in vitro
Concentration: 250 nM
Notes: 60-bp whole probe
With: salmon DNA 0.4 mg/ml
Relative to: random background probes
Direction: higher = stronger binding
Shared flanks, not repeated: GCCTAGCAC … GTCTTGATTCGCTTGACGCTGCTG
Sequence | log fluorescence [z-score]
GACTGTCTCCTTTTCCTGACGTGCTAG | 0.325
GACGATCTCAGACTGGAGTCGTGCTAG | -0.23
TCCTCTCTGCCACTCAGGTAGTGCTAG | -0.182
TGGCCTGTGCTATTTATAAGGGTGCTA | -0.372
CTCTTTCTTTGCTTCACCCTGTGCTAG | 1.27
GAGGATCTCAGTTTCGAGACGTGCTAG | 4.59
GAAGGTCTCGGACTGGGGACGTGCTAG | -0.555
TCAGCTTTCCTCGTGATACTGTGCTAG | 0.521
TTAGGTATCGGACTGGGTCAGTGCTAG | 1.5
TTAGATATCAGTCTCGCTTAGTGCTAG | 1.37
TCACCAATGCTTCTGGTACTGTGCTAG | -0.0866
TCAGAACTGAGACTGGATTAGTGCTAG | -0.0528
TTAGGTTTCGGTTCTGGTTAGTGCTAG | 9.79
GACGGGCTGCTTATCCTGACGTGCTAG | -0.509
GACGGTCTCGGTTTTGGGACGTGCTAG | 0.572
GTAGAACTGAGTATCGATTAGTGCTAG | 6.64
GACGGACTGCTTCTCCGGACGTGCTAG | -0.372
TCTTTCACAAGACGAAAGGAGTGCTAG | 4.21
TCATCCTTTGCTTTCTCACTGTGCTAG | 0.96
ATAGGTTTCCTTATCCTTTAGTGCTAG | 0.83
GACGGTATCGGACTAGGGACGTGCTAG | 1.16
TCTCTGCTCCTTCTGACATCGTGCTAG | 0.395
TTAGGGCTGGGGTTTCGGTTAGTGCTA | 5.86
GACGGACTGCGTTTCGGGACGTGCTAG | 1.18
AGATATCTGCACTCTCATGTGTGCTAG | 0.372

Block 4
Target: Ras GTPase-activating protein-binding protein 1, full length (G3BP1, Homo sapiens, UniProt Q13283)
UniProt Q13283, sequence (whole entry, looked up): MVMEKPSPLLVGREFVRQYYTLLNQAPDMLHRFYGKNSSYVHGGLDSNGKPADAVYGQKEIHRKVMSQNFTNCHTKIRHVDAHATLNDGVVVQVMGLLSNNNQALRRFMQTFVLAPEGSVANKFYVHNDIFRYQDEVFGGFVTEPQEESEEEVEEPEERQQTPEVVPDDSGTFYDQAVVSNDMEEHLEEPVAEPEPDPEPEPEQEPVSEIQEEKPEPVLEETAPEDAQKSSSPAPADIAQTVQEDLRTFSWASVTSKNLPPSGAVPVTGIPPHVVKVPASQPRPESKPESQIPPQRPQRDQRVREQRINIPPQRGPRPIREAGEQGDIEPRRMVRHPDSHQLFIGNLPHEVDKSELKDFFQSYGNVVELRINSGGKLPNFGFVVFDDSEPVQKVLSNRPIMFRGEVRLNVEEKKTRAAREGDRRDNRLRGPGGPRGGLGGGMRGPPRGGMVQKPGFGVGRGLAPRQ
Technique: RNA Bind-n-Seq
Form: RNA
Medium: in vitro
Concentration: 200 nM
Notes: whole 134-nt RNA, ends assumed
With: 150 mM LiCl
Relative to: input library
Direction: higher = stronger binding
Library: 7-deaza-guanosine replaces G
Shared flanks, not repeated: GGGAGUUCUACAGUCCGACGAUC … UGGAAUUCUCGGGUGUCAAGG
Sequence | log2 enrichment
GUCCUGUGCUACACAUCGUAUGUACCGAAUCGGAAAAAGGGAAAAAGGGGAAAAAGGGAAAGUAUUAUGUUACGCCGUUCGGAUCUGCAC | -0.163
CUCAAGUCCUGUGCUACACAUCGUAUGUACCGAAUCGGAGGUGGUUUUUUUGGAAAGUAUUAUGUUACGCCGUUCGGAUCUGCACUUCCA | -0.492
GCAGGAAGUAAAAACAAAUGGAAAUGCUUCGGAUAGUGGCAGGGGUGGGGGUUGCUAAGGAAAGGGUGGGAUGGGAGUGGCUAAAGAGUU | 0.112
AAGUCCUGUGCUACACAUCGUAUGUACCGAAUCGGGAAAAAAAGGGAAAGGGAGGGAAAGUAUUAUGUUACGCCGUUCGGAUCUGCACUU | 0.0444
CAAGUCCUGUGCUACACAUCGUAUGUACCGAAUCGGGUUUGGGGUUUGGGGUUUGGAAAGUAUUAUGUUACGCCGUUCGGAUCUGCACUU | -1.25
UGGGAGGUGGAUUUUGUUUAUUUUUUUAGCUCAUUUCCAGGGGUGGGAAUUUUUUUUUAAUAUGUGUCAUGAAUACAGUUGUUUUUGAAA | -0.272
CCUCAAGUCCUGUGCUACACAUCGUAUGUACCGAAUCGGGGAGGAGGGAGGGAAAGUAUUAUGUUACGCCGUUCGGAUCUGCACUUCCAG | 0.51
CUGUGCUACACAUCGUAUGUACCGAAUCAAAGUGUGUGUGUGUGUAAAGUGUGUGUGUAAAAAAGUAUUAUGUUACGCCGUUCGGAUCUG | -1.32
GCAGGAAGUAAAAACAAAUGGAAAUGCUUCGGAUAGUGGCAGGGGUGGGGGUUGCUAAGGAAAGGGUGGGAUGGGAGUGGGUAAAGAUUU | 0.125
CACAAAAAACACGCACCCACACAGACACAGAGGGAAGGGGUUGGGAUGGGGACAGGGUGCACAGCAGGGCGGGGUAGGACCCCAGCCCCU | 0.415
UUCCUCAAGUCCUGUGCUACACAUCGUAUGUACCGAAUCGGCGGGCGGCGGAAAGUAUUAUGUUACGCCGUUCGGAUCUGCACUUCCAGC | 1.22

Block 5
Target: RNA binding protein fox-1 homolog 2, RRM domain, GST-SBP tag (RBFOX2, Homo sapiens, UniProt O43251-10, residues 100-194)
Technique: RNA Bind-n-Seq
Form: RNA
Medium: in vitro
Concentration: 365 nM
Notes: natural RNA segment, single round, ends assumed
Relative to: no-protein control
Direction: higher = stronger binding
Shared flanks, not repeated: GGGAGUUCUACAGUCCGACGAUC … UGGAAUUCUCGGGUGCCAA
Target sequence (chain): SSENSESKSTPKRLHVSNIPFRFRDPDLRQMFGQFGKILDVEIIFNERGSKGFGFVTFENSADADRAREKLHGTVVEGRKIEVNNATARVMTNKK
Sequence | RBNS enrichment (R)
AGUAUGACGAUGAGCGGACCUUCUUCUGAAGUCCAAAAGGGGAAACCAAAUUCACCGUUAGGAAACAGUGAGCUCCGGCCCCACCUCGUGAACACAAAGCCUCGGAUCAG | 0.206
UCUUUUCUAAAUGAAACUCCAUGUAGCAACCAGGACGAAGUUGAGAAGGAAAACGCCAAAUGCUUUGGUUAUUAGAGUUUAAUAGGUAAGCUCUGUUACACUAGGUGUUA | 0.518
UGACUAAUACAGAGUUGACUUUAAAAAAAAGCCCCUCCAAAAACUCAACUCAGCAUCUCUCCCCCUAUGGACUUAACCCAAGUGUUUUUAAUGCUGGUAGCAGUUGGAUC | 0.409
UUUGAAAUUUGUAUUUAAUUUCACAGUGACCUAGAGCUAAGGUGCUCCCGGUUGUGGCAAUAGGAGCCACAAGUAUUUUCUUUCUUUCUUUCGUUCUUUCUUUCUUUCUU | 1.75
GUGAUCUUUUAGCAUGUGCUUUUAUAAAAAGUGGUAGCUCCAGAUGAUAUAGCAAUCUACCUUAUAUAGAGCCUUCAGAAACUGUGAGUGGAAGUGAGUGAAGCGUAUGA | 12.6
UAAAUAGAAAGUUAGCUGUUCCGCAGACAGGCGUAGUCUUGAGUGUCCUGUGUGGUCAGUGGCAGUGCUAUUCUGAGCUCUGUAGAUGCUUACAAUGUCAGUAUUUGGGA | 2
CUUGCUCUAGGGCACUCUGCCUCUACCCUAGGACACUGGAAUGCCCUGGGAGCCCCCUCCCUGCAACCAGCCUGAGUUCAGCCCCACGGACAAAGGGACACACAGCCCCC | 2.27
UCUCAGUUCUUCAUGGGCUUCACUCUUCCCACUCACGGAAGGGAGGUAGCUCAGGGACCUCCACUGUGGGACCCUUGAGACGCUUCCACUCUGAUUCAGAAACACACUUC | 0.192
AAGAAAAUAAAACUGGAAAUUGAAUAUGGGUGGCAUGAUUGUACCCUUUUAGUUCUCUUAUUUUUCUACUCCUCUGUCCCUCUAUAACUAUGCCAUACUAUUAUAUGCUG | 10.7
CCACAGUAUGAAAUGGAUGCUUCCUCUGCCACCUGUAUACAGGGGCUUUUACUUUGCACACCUUCAUUGCUUAAGAAGAAACUCAGGGUGCUGAGAAAGAUAUGUAUGCU | 0.954
AGGGGCUUUGGAAAGAGUAGGAGGGGUGGGCUGGAUCGGAAGCAACACCCAUUUGGGGUUACCAUGUCCAUCCCCCAAGGGGGGCCCUGCCCCUCGAGUCGAUGGUGUCC | 0.365
AUUUUAAUUCUAGAUGUGUUAUCUCUCUGGGAAGUAUAGUUUAUAGAAACACAAAAUAUUUGAUUUCCUGUGUCGGCUCAGCUACAAGAAACACAACUGUUAUCUUGACA | 0.935

A few entries again (block 5):
Sequence | RBNS enrichment (R)
AUUUUAAUUCUAGAUGUGUUAUCUCUCUGGGAAGUAUAGUUUAUAGAAACACAAAAUAUUUGAUUUCCUGUGUCGGCUCAGCUACAAGAAACACAACUGUUAUCUUGACA | 0.935
UAAAUAGAAAGUUAGCUGUUCCGCAGACAGGCGUAGUCUUGAGUGUCCUGUGUGGUCAGUGGCAGUGCUAUUCUGAGCUCUGUAGAUGCUUACAAUGUCAGUAUUUGGGA | 2
AGUAUGACGAUGAGCGGACCUUCUUCUGAAGUCCAAAAGGGGAAACCAAAUUCACCGUUAGGAAACAGUGAGCUCCGGCCCCACCUCGUGAACACAAAGCCUCGGAUCAG | 0.206
AAGAAAAUAAAACUGGAAAUUGAAUAUGGGUGGCAUGAUUGUACCCUUUUAGUUCUCUUAUUUUUCUACUCCUCUGUCCCUCUAUAACUAUGCCAUACUAUUAUAUGCUG | 10.7
CUUGCUCUAGGGCACUCUGCCUCUACCCUAGGACACUGGAAUGCCCUGGGAGCCCCCUCCCUGCAACCAGCCUGAGUUCAGCCCCACGGACAAAGGGACACACAGCCCCC | 2.27
AGGGGCUUUGGAAAGAGUAGGAGGGGUGGGCUGGAUCGGAAGCAACACCCAUUUGGGGUUACCAUGUCCAUCCCCCAAGGGGGGCCCUGCCCCUCGAGUCGAUGGUGUCC | 0.365
UCUUUUCUAAAUGAAACUCCAUGUAGCAACCAGGACGAAGUUGAGAAGGAAAACGCCAAAUGCUUUGGUUAUUAGAGUUUAAUAGGUAAGCUCUGUUACACUAGGUGUUA | 0.518
UUUGAAAUUUGUAUUUAAUUUCACAGUGACCUAGAGCUAAGGUGCUCCCGGUUGUGGCAAUAGGAGCCACAAGUAUUUUCUUUCUUUCUUUCGUUCUUUCUUUCUUUCUU | 1.75
CCACAGUAUGAAAUGGAUGCUUCCUCUGCCACCUGUAUACAGGGGCUUUUACUUUGCACACCUUCAUUGCUUAAGAAGAAACUCAGGGUGCUGAGAAAGAUAUGUAUGCU | 0.954
UGACUAAUACAGAGUUGACUUUAAAAAAAAGCCCCUCCAAAAACUCAACUCAGCAUCUCUCCCCCUAUGGACUUAACCCAAGUGUUUUUAAUGCUGGUAGCAGUUGGAUC | 0.409
GUGAUCUUUUAGCAUGUGCUUUUAUAAAAAGUGGUAGCUCCAGAUGAUAUAGCAAUCUACCUUAUAUAGAGCCUUCAGAAACUGUGAGUGGAAGUGAGUGAAGCGUAUGA | 12.6
